Published values from different studies.
± gives the spread as reported. In brackets after ≈: the same amount, converted by molar mass.

| Structure (SMILES) | organism | assay | system | setting | how to read | measurement | result |
| --- | --- | --- | --- | --- | --- | --- | --- |
| COc1ccccc1-c1n[nH]c2nc(N[C@H]3CC[C@H](NS(=O)(=O)CC(C)C)CC3)ncc12 | Leishmania donovani | – | LdBOB CRK12 single-allele knock-out | promastigotes | relative to: wild type, higher = more sensitive | sensitivity fold | ~2 fold |
| CC[C@H](C)[C@H](NC(=O)[C@H](CCCCN)NC(=O)[C@H](CCCCN)NC(=O)[C@H](CC(C)C)NC(=O)[C@H](CCCCN)NC(=O)[C@H](CCC(=O)O)NC(=O)[C@H](CCCCN)NC(=O)[C@@H](NC(=O)[C@H](CCCCN)NC(=O)[C@H](CC(N)=O)NC(=O)[C@H](CCCNC(=N)N)NC(=O)[C@H](Cc1ccccc1)NC(=O)[C@H](CCCCN)NC(=O)[C@H](CCCNC(=N)N)NC(=O)[C@H](CC(C)C)NC(=O)[C@H](CCCNC(=N)N)NC(=O)[C@H](CCCCN)NC(=O)[C@H](CCCNC(=N)N)NC(=O)[C@@H](N)CC(C)C)[C@@H](C)CC)C(=O)NCC(=O)N[C@@H](CCC(N)=O)C(=O)N[C@@H](CCCCN)C(=O)N[C@H](C(=O)N[C@@H](CCC(N)=O)C(=O)NCC(=O)N[C@@H](Cc1ccccc1)C(=O)N[C@H](C(=O)N1CCC[C@H]1C(=O)N[C@@H](CCCCN)C(=O)N[C@@H](CC(C)C)C(=O)O)C(C)C)[C@@H](C)CC | Pseudomonas aeruginosa | inhibition zone | FRD1 | LB agar, overnight | – | lethal concentration | 3.33 µM |
| CO.[Ag+].[S-]c1ncccn1.c1ccc(P(c2ccccc2)c2ccccc2)cc1.c1ccc(P(c2ccccc2)c2ccccc2)cc1 | Candida albicans | – | MTCC 227, DMSO | 0.1 mL of 50 mg/mL in 8 mm well, 18 to 24 h | – | inhibition zone diameter | 13 mm |
| COc1ccc(C2=Nn3c(N/N=C4/C(=O)Nc5ccc(C)cc54)nnc3SC2)cc1 | Gallus gallus | angiogenesis, HET-CAM | chorioallantoic membrane | 40 µM | relative to: DMSO control | capillary number increase | 35% |
| COC1=CC(c2ccc[nH]2)=NC1=CNC1CCCCC1 | Plasmodium falciparum | – | HepG2, D6 | – | relative to: HepG2 IC50 over D6 IC50 | selectivity index | 306 |
| CC[C@@H](C)[C@@H](NC(=O)[C@@H](C)NC(=O)[C@@H](CCCCN)NC(=O)[C@@H](CC(C)C)NC(=O)[C@@H](C)NC(=O)[C@H](NC(=O)[C@@H](Cc1c[nH]cn1)NC(=O)[C@@H](CC(C)C)NC(=O)[C@H](NC(=O)[C@H](NC(=O)[C@@H](CCCCN)NC(=O)[C@@H](CCCCN)NC(=O)[C@@H](C)NC(=O)[C@@H](CO)NC(=O)[C@@H](CCCCN)NC(=O)[C@@H](Cc1ccccc1)NC(=O)[C@H](NC(=O)[C@@H](CCCCN)NC(=O)[C@@H](CC(C)C)NC(=O)[C@@H](Cc1ccccc1)NC(=O)[C@@H](CO)NC(=O)[C@@H](CCCCN)NC(=O)[C@@H](Cc1c[nH]c2ccccc12)NC(=O)[C@@H](CCCCN)NC(C)=O)[C@H](C)O)[C@H](C)O)C(C)C)[C@H](C)O)C(=O)N[C@H](CO)C(=O)N[C@H](CO)C(N)=O | Aspergillus nidulans | – | AZN 2867 | 48 h, 30 °C | – | MIC90 | 50 µg/mL (≈ 16.7 µM) |
| CC[C@H](C)[C@H](NC(=O)[C@H](CO)NC(=O)[C@H](CO)NC(=O)[C@H](Cc1ccccc1)NC(=O)CN)C(=O)N[C@@H](Cc1ccccc1)C(=O)N[C@@H](CCCNC(=N)N)C(N)=O | Escherichia coli | – | ATCC 8739 | 20% FBS | – | MBC | > 128 µM |
| CC[C@H](C)[C@H](NC(=O)[C@H](CCCCN)NC(=O)[C@H](CCCCN)NC(=O)[C@H](CC(C)C)NC(=O)[C@H](CCCCN)NC(=O)[C@H](CCC(=O)O)NC(=O)[C@H](CCCCN)NC(=O)[C@@H](NC(=O)[C@H](CCCCN)NC(=O)[C@H](CC(N)=O)NC(=O)[C@H](CCCNC(=N)N)NC(=O)[C@H](Cc1ccccc1)NC(=O)[C@H](CCCCN)NC(=O)[C@H](CCCNC(=N)N)NC(=O)[C@H](CC(C)C)NC(=O)[C@H](CCCNC(=N)N)NC(=O)[C@H](CCCCN)NC(=O)[C@H](CCCNC(=N)N)NC(=O)[C@H](CC(C)C)NC(=O)[C@@H](N)CCCNC(=N)N)[C@@H](C)CC)C(=O)NCC(=O)N[C@@H](CCC(N)=O)C(=O)N[C@@H](CCCCN)C(=O)N[C@H](C(=O)N[C@@H](CCC(N)=O)C(=O)NCC(=O)N[C@@H](Cc1ccccc1)C(=O)N[C@H](C(=O)N1CCC[C@H]1C(=O)N[C@@H](CCCCN)C(=O)N[C@@H](CC(C)C)C(=O)N[C@@H](CCC(N)=O)C(=O)N1CCC[C@H]1C(=O)N[C@@H](CO)C(=O)N[C@@H](CCCCN)C(=O)N[C@@H](CCC(N)=O)C(=O)N[C@@H](CO)C(=O)O)C(C)C)[C@@H](C)CC | Bacillus subtilis | inhibition zone | CGMCC 1.243 | – | – | lethal concentration | 2.36 µM |
| O=C(NC1CCCCC1)c1nc(Cl)c2cccnc2c1O | Human betaherpesvirus 5 | viral replication, inhibitor | HFF | 10 µM | – | inhibition | 5.9% |
| O=C(C=CC(Cc1ccccc1)Nc1ccnc2cc(Cl)ccc12)NCCN1CCOCC1 (stereo not shown) | Plasmodium berghei | – | NK65, ICR mouse | 30 mg/kg once daily, 6 days post-infection | – | survival rate | 40% |
| CN[C@@H]1[C@H](O)[C@H](NC)[C@H]2O[C@]3(O)[C@H](O[C@@H]2[C@H]1O)O[C@H](C)C[C@@]3(O)CNCc1ccc(F)cc1 | Neisseria gonorrhoeae | – | ATCC 49226 | 40 µg per disc | – | inhibition zone diameter | 16 to 19 mm |
| CCOC(=O)/C=C/[C@H](C[C@@H]1CCNC1=O)NC(=O)[C@@H]1[C@@H]2[C@H](CN1C(=O)[C@@H](NC(=O)C(F)(F)F)C(C)(C)C)C2(C)C | Human coronavirus 229E | viral replication | MRC5 | – | relative to: compound over nirmatrelvir | EC50 ratio | 6 fold |
| COc1ccc(N2C(=O)C=CC2=O)cc1 | Candida albicans | qRT-PCR, refers to: RAS1 | – | 1 µg/mL, 12 h | relative to: untreated | mRNA level | 0.18 fold |
| CC[C@H](C)[C@H](NC(=O)[C@H](CCCCN)NC(=O)[C@H](CCCCN)NC(=O)[C@H](CC(C)C)NC(=O)[C@H](CCCCN)NC(=O)[C@H](CCC(=O)O)NC(=O)[C@H](CCCCN)NC(=O)[C@@H](NC(=O)[C@H](CCCCN)NC(=O)[C@H](CC(N)=O)NC(=O)[C@H](CCCNC(=N)N)NC(=O)[C@H](Cc1ccccc1)NC(=O)[C@H](CCCCN)NC(=O)[C@H](CCCNC(=N)N)NC(=O)[C@H](CC(C)C)NC(=O)[C@H](CCCNC(=N)N)NC(=O)[C@H](CCCCN)NC(=O)[C@H](CCCNC(=N)N)NC(=O)[C@H](CC(C)C)NC(=O)CN)[C@@H](C)CC)C(=O)NCC(=O)N[C@@H](CCC(N)=O)C(=O)N[C@@H](CCCCN)C(=O)N[C@H](C(=O)N[C@@H](CCC(N)=O)C(=O)NCC(=O)N[C@@H](Cc1ccccc1)C(=O)N[C@H](C(=O)N1CCC[C@H]1C(=O)N[C@@H](CCCCN)C(=O)N[C@@H](CC(C)C)C(=O)N[C@@H](C)C(=O)N1CCC[C@H]1C(=O)N[C@@H](CCCNC(=N)N)C(=O)N[C@H](C(=O)N[C@@H](CC(=O)O)C(=O)N[C@@H](Cc1ccc(O)cc1)C(=O)O)[C@@H](C)O)C(C)C)[C@@H](C)CC | Salmonella | inhibition zone | ZQ.17N | LB agar, overnight | – | lethal concentration | 1.67 µM |
| CC(C)=C1CC[C@]23CO[C@H](C2)[C@@](O)(C(=O)O)CC[C@@H]13 | Arabidopsis thaliana | – | wild type, MS agar | 100 µM | – | growth inhibition | inhibited |
| CC[C@H](C)[C@H](NC(=O)[C@@H](NC(=O)[C@H](Cc1ccc(O)cc1)NC(=O)[C@H](CCCCN)NC(=O)[C@H](CCCCN)NC(=O)[C@H](CC(C)C)NC(=O)[C@H](CC(=O)O)NC(=O)[C@H](Cc1ccc(O)cc1)NC(=O)[C@H](CCC(N)=O)NC(=O)[C@H](CCCCN)NC(=O)[C@@H](NC(=O)[C@H](Cc1ccccc1)NC(=O)[C@H](CCCCN)NC(=O)[C@H](CCCCN)NC(=O)[C@H](Cc1c[nH]c2ccccc12)NC(=O)[C@H](CCCCN)NC(=O)[C@H](CCSC)NC(=O)[C@H](CCCNC(=N)N)NC(=O)[C@H](CCCNC(=N)N)NC(=O)[C@H](CC(N)=O)NC(=O)[C@H](CCC(N)=O)NC(=O)[C@H](Cc1ccccc1)NC(=O)[C@H](Cc1c[nH]c2ccccc12)NC(=O)[C@@H](NC(=O)[C@H](CCCCN)NC(=O)[C@@H](NC(=O)[C@H](CCC(N)=O)NC(=O)[C@@H](N)CCCNC(=N)N)[C@@H](C)CC)[C@@H](C)CC)[C@@H](C)CC)[C@@H](C)CC)C(=O)O | Plasmodium falciparum | – | 3D7 | 50 µM, 24 h, early trophozoite stage, new ring stage | relative to: solvent control | growth inhibition | ~50% |
| CN(C)CCNC(=O)/C=C/[C@H](Cc1ccccc1)Nc1ccnc2cc(Cl)ccc12 | Plasmodium berghei | – | NAT atovaquone-resistant, ICR mouse infected | 10 mg/kg, 2 days post infection | – | body weight | 27.3 ± 1.64 g |
| C[C@@H](O)[C@H](NC(=O)[C@H](CCC(=O)O)NC(=O)[C@H](Cc1ccccc1)NC(=O)[C@H](Cc1c[nH]c2ccccc12)NC(=O)[C@H](CCCCN)NC(=O)[C@H](CCCCN)NC(=O)[C@H](CCCCN)NC(=S)Nc1ccc2c(c1)C(=O)OC21c2ccc(O)cc2Oc2cc(O)ccc21)C(=O)N[C@@H](Cc1c[nH]c2ccccc12)C(=O)N[C@@H](Cc1ccccc1)C(=O)N[C@H](C(=O)N[C@@H](CCC(=O)O)C(=O)N[C@@H](Cc1c[nH]c2ccccc12)C(=O)N1CCC[C@H]1C(=O)N[C@@H](CCCCN)C(=O)N[C@@H](CCCCN)C(=O)N[C@@H](CCCCN)C(=O)N[C@@H](CCCCN)C(=O)O)[C@@H](C)O | Candida albicans | – | – | 10-fold MIC, 25 °C | – | duration of growth inhibition | 4 h |
| COc1ccc(C2=[N+]([O-])c3ccccc3N3CCN=C23)cc1 | Eggerthella lenta | microbial growth | ATCC43055 | – | – | MIC | ≤ 0.06 µg/mL |

Repeated from above:
| Structure (SMILES) | organism | assay | system | setting | how to read | measurement | result |
| --- | --- | --- | --- | --- | --- | --- | --- |
| COc1ccc(C2=[N+]([O-])c3ccccc3N3CCN=C23)cc1 | Eggerthella lenta | microbial growth | ATCC43055 | – | – | MIC | ≤ 0.06 µg/mL |
| CC[C@H](C)[C@H](NC(=O)[C@H](CCCCN)NC(=O)[C@H](CCCCN)NC(=O)[C@H](CC(C)C)NC(=O)[C@H](CCCCN)NC(=O)[C@H](CCC(=O)O)NC(=O)[C@H](CCCCN)NC(=O)[C@@H](NC(=O)[C@H](CCCCN)NC(=O)[C@H](CC(N)=O)NC(=O)[C@H](CCCNC(=N)N)NC(=O)[C@H](Cc1ccccc1)NC(=O)[C@H](CCCCN)NC(=O)[C@H](CCCNC(=N)N)NC(=O)[C@H](CC(C)C)NC(=O)[C@H](CCCNC(=N)N)NC(=O)[C@H](CCCCN)NC(=O)[C@H](CCCNC(=N)N)NC(=O)[C@H](CC(C)C)NC(=O)CN)[C@@H](C)CC)C(=O)NCC(=O)N[C@@H](CCC(N)=O)C(=O)N[C@@H](CCCCN)C(=O)N[C@H](C(=O)N[C@@H](CCC(N)=O)C(=O)NCC(=O)N[C@@H](Cc1ccccc1)C(=O)N[C@H](C(=O)N1CCC[C@H]1C(=O)N[C@@H](CCCCN)C(=O)N[C@@H](CC(C)C)C(=O)N[C@@H](C)C(=O)N1CCC[C@H]1C(=O)N[C@@H](CCCNC(=N)N)C(=O)N[C@H](C(=O)N[C@@H](CC(=O)O)C(=O)N[C@@H](Cc1ccc(O)cc1)C(=O)O)[C@@H](C)O)C(C)C)[C@@H](C)CC | Salmonella | inhibition zone | ZQ.17N | LB agar, overnight | – | lethal concentration | 1.67 µM |
